Experimental data collected from several papers.
Numbered parts are unrelated; each lists some results of a single study. “And” joins repeats or separate records; there may be more than shown.
Chain of UniProt Q16538 (whole entry, looked up): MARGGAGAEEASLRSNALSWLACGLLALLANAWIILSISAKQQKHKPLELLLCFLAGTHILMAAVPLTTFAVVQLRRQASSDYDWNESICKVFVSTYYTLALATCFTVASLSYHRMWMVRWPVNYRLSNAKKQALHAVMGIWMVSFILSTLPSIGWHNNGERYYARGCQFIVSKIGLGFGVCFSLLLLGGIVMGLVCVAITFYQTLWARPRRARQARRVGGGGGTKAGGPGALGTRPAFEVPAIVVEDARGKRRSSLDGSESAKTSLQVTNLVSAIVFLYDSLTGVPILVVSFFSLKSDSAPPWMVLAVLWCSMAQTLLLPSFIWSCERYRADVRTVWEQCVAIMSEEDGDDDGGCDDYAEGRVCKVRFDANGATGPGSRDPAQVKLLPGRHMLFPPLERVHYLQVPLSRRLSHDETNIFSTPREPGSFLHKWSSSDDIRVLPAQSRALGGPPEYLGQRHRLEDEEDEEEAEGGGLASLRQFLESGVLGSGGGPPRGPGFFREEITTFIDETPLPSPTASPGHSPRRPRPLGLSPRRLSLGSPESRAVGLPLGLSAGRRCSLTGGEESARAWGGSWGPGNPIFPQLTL
Chain of UniProt Q96RI9 (whole entry, looked up): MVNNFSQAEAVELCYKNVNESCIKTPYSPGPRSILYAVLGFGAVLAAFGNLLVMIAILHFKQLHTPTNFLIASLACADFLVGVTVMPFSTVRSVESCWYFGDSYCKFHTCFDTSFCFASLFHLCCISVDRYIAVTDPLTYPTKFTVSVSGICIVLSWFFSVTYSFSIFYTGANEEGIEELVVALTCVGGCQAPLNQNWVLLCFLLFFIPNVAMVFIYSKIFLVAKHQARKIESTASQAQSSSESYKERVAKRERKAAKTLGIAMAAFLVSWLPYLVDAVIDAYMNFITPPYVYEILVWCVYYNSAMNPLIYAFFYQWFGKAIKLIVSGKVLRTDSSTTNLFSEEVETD
Chain of UniProt Q86SQ4 (whole entry, looked up): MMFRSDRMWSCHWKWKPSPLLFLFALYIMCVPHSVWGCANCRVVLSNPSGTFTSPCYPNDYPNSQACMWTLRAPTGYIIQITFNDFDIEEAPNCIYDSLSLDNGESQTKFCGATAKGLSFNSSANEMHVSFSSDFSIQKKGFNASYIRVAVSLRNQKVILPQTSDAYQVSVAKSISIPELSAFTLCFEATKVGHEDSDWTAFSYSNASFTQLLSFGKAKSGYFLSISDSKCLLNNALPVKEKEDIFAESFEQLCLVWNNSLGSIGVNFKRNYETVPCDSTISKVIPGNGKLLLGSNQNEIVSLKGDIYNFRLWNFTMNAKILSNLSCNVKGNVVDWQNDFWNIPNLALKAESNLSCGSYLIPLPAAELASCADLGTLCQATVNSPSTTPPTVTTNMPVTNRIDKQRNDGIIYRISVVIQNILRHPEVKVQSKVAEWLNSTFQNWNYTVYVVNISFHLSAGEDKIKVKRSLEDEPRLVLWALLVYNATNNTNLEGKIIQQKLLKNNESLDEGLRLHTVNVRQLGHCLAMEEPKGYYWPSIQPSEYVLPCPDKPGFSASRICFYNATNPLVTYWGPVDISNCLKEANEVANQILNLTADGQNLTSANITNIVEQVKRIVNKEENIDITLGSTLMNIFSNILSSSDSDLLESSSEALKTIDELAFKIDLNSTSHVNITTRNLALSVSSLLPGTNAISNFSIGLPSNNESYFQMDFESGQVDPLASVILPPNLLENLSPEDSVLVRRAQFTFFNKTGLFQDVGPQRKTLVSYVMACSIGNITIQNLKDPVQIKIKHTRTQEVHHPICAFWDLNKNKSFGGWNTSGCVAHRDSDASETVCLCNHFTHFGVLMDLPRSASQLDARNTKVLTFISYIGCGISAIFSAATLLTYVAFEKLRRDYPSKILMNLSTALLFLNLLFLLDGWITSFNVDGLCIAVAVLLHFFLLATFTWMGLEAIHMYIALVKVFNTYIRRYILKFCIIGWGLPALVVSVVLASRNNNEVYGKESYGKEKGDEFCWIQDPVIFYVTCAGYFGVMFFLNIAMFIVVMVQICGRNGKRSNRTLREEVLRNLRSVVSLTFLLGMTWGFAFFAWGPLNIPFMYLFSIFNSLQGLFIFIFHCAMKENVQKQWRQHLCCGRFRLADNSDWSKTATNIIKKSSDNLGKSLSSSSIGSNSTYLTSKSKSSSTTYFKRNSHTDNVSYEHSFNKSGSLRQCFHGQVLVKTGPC
Chain of UniProt P29376 (whole entry, looked up): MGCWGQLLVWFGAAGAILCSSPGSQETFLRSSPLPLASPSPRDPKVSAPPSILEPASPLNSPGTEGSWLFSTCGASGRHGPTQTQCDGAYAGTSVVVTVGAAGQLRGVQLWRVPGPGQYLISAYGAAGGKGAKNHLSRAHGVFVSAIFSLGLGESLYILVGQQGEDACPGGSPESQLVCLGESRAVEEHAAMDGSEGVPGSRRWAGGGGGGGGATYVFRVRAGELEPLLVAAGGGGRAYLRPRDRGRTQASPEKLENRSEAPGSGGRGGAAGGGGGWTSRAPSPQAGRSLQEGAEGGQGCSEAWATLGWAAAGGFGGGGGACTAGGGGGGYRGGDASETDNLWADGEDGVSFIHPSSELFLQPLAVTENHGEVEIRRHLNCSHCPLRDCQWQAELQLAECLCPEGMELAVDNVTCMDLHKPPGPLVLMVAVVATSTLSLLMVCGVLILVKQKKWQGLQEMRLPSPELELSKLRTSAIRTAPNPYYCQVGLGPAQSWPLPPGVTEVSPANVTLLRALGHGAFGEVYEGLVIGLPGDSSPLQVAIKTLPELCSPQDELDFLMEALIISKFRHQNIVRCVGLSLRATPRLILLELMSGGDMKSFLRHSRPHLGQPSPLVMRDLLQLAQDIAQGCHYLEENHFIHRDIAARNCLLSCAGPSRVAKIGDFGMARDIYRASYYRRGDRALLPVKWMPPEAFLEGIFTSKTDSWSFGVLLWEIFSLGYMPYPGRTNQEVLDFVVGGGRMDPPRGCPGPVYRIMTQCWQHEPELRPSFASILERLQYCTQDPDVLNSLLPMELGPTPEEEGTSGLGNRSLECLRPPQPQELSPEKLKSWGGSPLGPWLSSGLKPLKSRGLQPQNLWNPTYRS
Chain of UniProt P21728 (whole entry, looked up): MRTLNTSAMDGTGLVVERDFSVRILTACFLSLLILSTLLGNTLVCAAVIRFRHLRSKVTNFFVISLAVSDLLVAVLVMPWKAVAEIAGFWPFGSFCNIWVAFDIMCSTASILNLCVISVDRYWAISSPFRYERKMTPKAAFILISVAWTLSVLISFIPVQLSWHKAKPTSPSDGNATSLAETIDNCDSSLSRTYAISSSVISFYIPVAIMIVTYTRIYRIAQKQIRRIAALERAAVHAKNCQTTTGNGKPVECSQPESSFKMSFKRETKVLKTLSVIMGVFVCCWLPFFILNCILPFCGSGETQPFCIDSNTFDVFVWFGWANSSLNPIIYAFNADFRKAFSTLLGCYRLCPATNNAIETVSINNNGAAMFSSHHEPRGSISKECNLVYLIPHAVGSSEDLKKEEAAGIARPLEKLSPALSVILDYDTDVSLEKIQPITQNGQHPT
Chain of UniProt P28222 (whole entry, looked up): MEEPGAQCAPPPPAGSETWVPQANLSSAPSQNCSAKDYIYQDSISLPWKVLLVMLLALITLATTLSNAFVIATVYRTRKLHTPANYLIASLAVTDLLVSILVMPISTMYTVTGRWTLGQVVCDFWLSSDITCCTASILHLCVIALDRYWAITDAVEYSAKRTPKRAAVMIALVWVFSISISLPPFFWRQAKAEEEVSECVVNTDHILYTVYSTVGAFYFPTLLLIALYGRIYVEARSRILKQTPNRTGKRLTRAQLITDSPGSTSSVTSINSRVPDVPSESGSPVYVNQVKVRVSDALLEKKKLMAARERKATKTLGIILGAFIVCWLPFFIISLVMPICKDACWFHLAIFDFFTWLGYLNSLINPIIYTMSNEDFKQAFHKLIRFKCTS
Chain of UniProt Q96LA9 (whole entry, looked up): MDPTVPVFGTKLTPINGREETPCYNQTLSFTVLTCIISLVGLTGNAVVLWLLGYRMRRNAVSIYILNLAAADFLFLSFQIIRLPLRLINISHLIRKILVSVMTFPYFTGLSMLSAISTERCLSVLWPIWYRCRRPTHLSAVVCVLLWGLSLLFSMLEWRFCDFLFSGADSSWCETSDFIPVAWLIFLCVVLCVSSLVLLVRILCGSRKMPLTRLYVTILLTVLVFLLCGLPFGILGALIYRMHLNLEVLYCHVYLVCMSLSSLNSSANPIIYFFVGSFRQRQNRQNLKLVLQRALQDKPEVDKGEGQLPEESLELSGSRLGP
Chain of UniProt Q8TDU9 (whole entry, looked up): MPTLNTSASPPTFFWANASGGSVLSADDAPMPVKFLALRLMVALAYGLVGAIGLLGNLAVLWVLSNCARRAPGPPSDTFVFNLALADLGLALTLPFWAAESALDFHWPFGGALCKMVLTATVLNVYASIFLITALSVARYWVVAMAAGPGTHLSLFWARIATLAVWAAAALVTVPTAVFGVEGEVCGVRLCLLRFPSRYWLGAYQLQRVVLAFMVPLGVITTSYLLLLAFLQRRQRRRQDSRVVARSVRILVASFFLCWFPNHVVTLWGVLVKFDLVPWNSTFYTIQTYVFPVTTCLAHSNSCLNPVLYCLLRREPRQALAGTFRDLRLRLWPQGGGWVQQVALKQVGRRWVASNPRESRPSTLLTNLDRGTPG
Chain of UniProt P30968 (whole entry, looked up): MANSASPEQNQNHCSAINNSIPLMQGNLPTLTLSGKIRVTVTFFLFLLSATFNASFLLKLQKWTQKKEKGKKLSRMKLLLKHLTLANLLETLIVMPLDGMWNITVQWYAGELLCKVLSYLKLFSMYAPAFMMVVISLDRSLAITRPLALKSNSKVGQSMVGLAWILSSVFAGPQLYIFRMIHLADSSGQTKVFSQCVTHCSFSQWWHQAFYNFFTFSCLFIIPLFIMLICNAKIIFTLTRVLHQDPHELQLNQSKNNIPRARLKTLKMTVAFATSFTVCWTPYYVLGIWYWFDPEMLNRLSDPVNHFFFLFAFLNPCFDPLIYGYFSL

Study 1
Compound: N=C(N)NC(=O)c1cnn(-c2cccc3ncccc23)c1C1CC1
Effect on: β-arrestin recruitment
Action: agonist
Technique: PRESTO-Tango
Tested at: 10 µM
Reference: untreated
It gave 1.19 for “fold over basal” (5-hydroxytryptamine receptor 1B (HTR1B, Homo sapiens, UniProt P28222)).
For Probable G-protein coupled receptor 162 (GPR162, Homo sapiens, UniProt Q16538): “fold over basal” read 0.93.
For ADGRG6 (Homo sapiens, UniProt Q86SQ4): “fold over basal” read 1.39.
Gonadotropin-releasing hormone receptor (GNRHR, Homo sapiens, UniProt P30968) — “fold over basal”: 1 fold.
The “fold over basal” was 1.09 (Mas-related G-protein coupled receptor member X4 (Homo sapiens, UniProt Q96LA9)).
It gave 0.81 for “fold over basal” (D(1A) dopamine receptor (DRD1, Homo sapiens, UniProt P21728)).
Relaxin-3 receptor 2 (RXFP4, Homo sapiens, UniProt Q8TDU9) — “fold over basal”: 3.51.
Trace amine-associated receptor 9 (TAAR9, Homo sapiens, UniProt Q96RI9) — “fold over basal”: 0.85 fold.

Study 2
SMILES: C[C@@H]1CN(c2ccc(-c3cc(C(=O)NCCOCCOCCOCCOCCNC(=O)/C=C/c4[nH]cc(C(=O)N[C@@H](CC(N)=O)c5ccc(F)c(Cl)c5)c4-c4ccc(Cl)cc4F)ccc3F)cc2NC(=O)c2c[nH]c(=O)cc2C(F)(F)F)C[C@H](C)N1C
Technique: ATPlite
MV4-11; 4.64 µM, 5 days; reference: DMSO — viability: 30.3% and 46.2% and 60.5% and 39.3%.
For MV4-11; 0.1 µM, 5 days; reference: DMSO: viability read 76.6% and 71.6% and 96.6% and 83.4%.
It gave 86.2% and 84.7% and 76.2% and 66.1% for viability (MV4-11; 1 µM, 5 days; reference: DMSO).
For MV4-11 expressing HiBiT-WDR5; RPMI with 10% FBS; 5.15 nM, 24 h: viability read 100% and 97.2% and 81.2%.
MV4-11; 0.0464 µM, 5 days; reference: DMSO — viability: 97.1% and 75.1% and 81.8%.
For MV4-11; 0.01 µM, 5 days; reference: DMSO: viability read 92.4% and 75.9% and 74.2% and 99.8%.
It gave 86.4% and 106% and 91% for viability (MV4-11 expressing HiBiT-WDR5; RPMI with 10% FBS; 13.3 nM, 24 h).
It gave 112% and 91.7% and 113% for viability (MV4-11 expressing HiBiT-WDR5; RPMI with 10% FBS; 1510 nM, 24 h).

Other studies, line by line
Under “G0-G1 phase cells”, `CC(C)C[C@@H]1NC(=O)[C@@H](N(C)C(=O)[C@H](CC2CCC2)NC(=O)[C@@H]2C[C@@H](F)CN2C(=O)C2(C(F)(F)F)CC(F)(F)C2)CCCCNC(=O)C2(CC2)NC(=O)[C@H](Cc2cc(Cl)ccc2Cl)N(C)C1=O` is recorded as 45.1% and 42% (human CD34+ HSPC; EdU flow cytometry; 10000 nM, 24 h).
`CCN(CC)CCNC(=O)c1c(C)[nH]c(/C=C2\C(=O)Nc3ccc(F)cc32)c1C` has a remaining activity of 34.4% (Leukocyte tyrosine kinase receptor (LTK, Homo sapiens, UniProt P29376); enzyme activity, inhibitor, radiometric; 0.5 µM).

Repeated from above (study 1):
Gonadotropin-releasing hormone receptor (GNRHR, Homo sapiens, UniProt P30968) — “fold over basal”: 1 fold.
The “fold over basal” was 1.09 (Mas-related G-protein coupled receptor member X4 (Homo sapiens, UniProt Q96LA9)).
It gave 1.19 for “fold over basal” (5-hydroxytryptamine receptor 1B (HTR1B, Homo sapiens, UniProt P28222)).
